Results pooled from the literature.
Each numbered part is a random draw from the data of one study; scales do not carry over between parts.
UniProt Q96SB4, sequence (whole entry, looked up): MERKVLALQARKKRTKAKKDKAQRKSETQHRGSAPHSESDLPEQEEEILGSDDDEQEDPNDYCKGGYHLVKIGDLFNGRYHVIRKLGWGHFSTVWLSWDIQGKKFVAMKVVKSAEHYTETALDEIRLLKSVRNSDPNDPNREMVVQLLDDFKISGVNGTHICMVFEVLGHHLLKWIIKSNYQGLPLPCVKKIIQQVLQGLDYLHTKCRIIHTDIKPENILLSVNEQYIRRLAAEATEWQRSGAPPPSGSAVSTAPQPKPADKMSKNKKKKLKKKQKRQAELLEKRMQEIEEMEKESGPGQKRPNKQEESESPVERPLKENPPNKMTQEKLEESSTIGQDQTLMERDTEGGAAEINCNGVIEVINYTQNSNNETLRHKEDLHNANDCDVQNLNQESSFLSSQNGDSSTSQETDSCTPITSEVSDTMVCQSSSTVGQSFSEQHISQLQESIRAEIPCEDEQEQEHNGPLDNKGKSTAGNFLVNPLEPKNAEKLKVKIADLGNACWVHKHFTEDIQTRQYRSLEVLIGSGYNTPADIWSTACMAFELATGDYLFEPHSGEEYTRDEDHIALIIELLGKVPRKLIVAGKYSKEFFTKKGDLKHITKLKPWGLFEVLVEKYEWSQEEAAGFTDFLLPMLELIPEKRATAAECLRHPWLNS
UniProt Q07912, sequence (whole entry, looked up): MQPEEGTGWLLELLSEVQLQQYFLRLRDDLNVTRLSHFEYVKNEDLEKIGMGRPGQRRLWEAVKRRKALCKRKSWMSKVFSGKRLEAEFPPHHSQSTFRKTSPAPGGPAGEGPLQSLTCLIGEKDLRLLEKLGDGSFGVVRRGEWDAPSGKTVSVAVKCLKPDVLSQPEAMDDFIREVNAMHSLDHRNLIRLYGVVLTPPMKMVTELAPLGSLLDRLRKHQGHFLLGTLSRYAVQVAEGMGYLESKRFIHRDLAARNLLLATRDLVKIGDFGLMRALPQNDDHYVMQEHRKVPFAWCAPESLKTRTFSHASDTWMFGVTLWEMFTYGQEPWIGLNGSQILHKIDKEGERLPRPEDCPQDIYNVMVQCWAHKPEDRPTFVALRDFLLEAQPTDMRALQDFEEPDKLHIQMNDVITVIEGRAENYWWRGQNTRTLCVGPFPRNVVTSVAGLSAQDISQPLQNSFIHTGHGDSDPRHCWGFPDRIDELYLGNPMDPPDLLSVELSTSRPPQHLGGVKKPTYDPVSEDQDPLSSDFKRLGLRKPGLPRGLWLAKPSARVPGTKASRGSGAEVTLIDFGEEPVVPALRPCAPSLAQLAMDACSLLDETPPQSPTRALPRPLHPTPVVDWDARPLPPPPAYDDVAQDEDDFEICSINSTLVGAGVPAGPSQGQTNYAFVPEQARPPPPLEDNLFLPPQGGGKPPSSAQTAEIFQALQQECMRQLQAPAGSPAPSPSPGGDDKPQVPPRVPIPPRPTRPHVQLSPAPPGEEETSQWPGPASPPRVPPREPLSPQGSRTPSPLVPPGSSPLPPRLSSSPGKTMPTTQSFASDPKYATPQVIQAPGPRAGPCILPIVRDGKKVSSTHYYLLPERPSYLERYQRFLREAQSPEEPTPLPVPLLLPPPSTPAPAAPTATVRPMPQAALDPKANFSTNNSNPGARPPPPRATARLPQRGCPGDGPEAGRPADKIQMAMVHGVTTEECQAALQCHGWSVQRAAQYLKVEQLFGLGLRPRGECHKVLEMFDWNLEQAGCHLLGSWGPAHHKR

Block 1
Target: TAR DNA-binding protein 43, full length, His tag (TARDBP, Homo sapiens, UniProt Q13148, residues 1-414)
Technique: RNA Bind-n-Seq
Form: RNA
Sample: in vitro
Concentration: 20 nM
Notes: 6-mer, flanks averaged, single round
Added: 150 mM LiCl
Relative to: input library
Direction: higher = stronger binding
Endpoint: 6-mer enrichment (R)
GACCGU: 0.869
CCAAAC: 0.821
CUCGAA: 0.781
GCUCUU: 0.918
CGGCCC: 1.04
GCAUAA: 0.901
CAUCAC: 0.845
CUAUCA: 0.845

Block 2
Target: RNA binding protein fox-1 homolog 2, RRM domain, GST-SBP tag (RBFOX2, Homo sapiens, UniProt O43251-10, residues 100-194)
Technique: RNA Bind-n-Seq
Form: RNA
Sample: in vitro
Concentration: 365 nM
Notes: natural RNA segment, single round, ends assumed
Relative to: no-protein control
Direction: higher = stronger binding
Endpoint: RBNS enrichment (R)
Constant ends, left off below: GGGAGUUCUACAGUCCGACGAUC … UGGAAUUCUCGGGUGCCAA
GGCAGUCUCUCACAUCACAGAUGUGGAAAGUAUAAUUUUAUAUUUGUAUUUUCAAAUAAAUAAGUUUGUGAAAGGUUUCCAUCCUCUACUGUGGUCCAGAAAUCAAUGUG: 0.525
UUCCCUAUGCCAACUCACGACUCCUACAGGUACUAGUCACUCAUCUACCAGAUUCUGCCUAUGUAAAAUGAAUUGAAAAACAAUUUUCUGUAAUCUUUUAUUUAAGUAGU: 0.432
CAGUCUUGUUUUGGCAUCAUCCUCAUCAUGUUGUAUUCCAGCUUCUUAAGUGGAAGGAAAAGAGUGCUGAGAAAUGGCUCUGUAUAAUCUAUGGCUAUCCGAAUUCUCUG: 0.376
AGUGACCCCAGGUUUAGCAUCGUCCUAUACUGUUCCCUCCACUCCUCCAUGACCCUCUGAGUGAUGGUUCUUUUGCGCCCUGUAGCUGUUCUAGGAUAGGAUGCAUGUUA: 5.1
UCCAUGCUUUUUCUAUCCCAUCCUCUCUCUGUGCCCUCCUGCAAUGGCAGCCUUGGCACAAUGCCUGGGUGUCCUCAUCCUUGCUUUACUCUGGAAAGUGUGGGGAUGGA: 0.745
UUUGGAGCAGAUCCUGUCUGCAUUAUCAGGAAACCAGCAAUUCAGUUCACGGGUCAGCAGUGGCAGCUCGACCCACUCGCAAACACUUCACGGAUACACCAGCAGUGUUG: 1.4
ACAGACUGCAGCGUGCAUGGCCUCUACCCACAAGAGAUGCACUGCAGGAGGCCGGCCCUGUUCUCUGUACUCAGCAUUUUGACAUCUCCUUUGAAGGCCAGGUAUAUGUG: 3.79
AGGGUGAGACUGGCGUGCAGGCGUGUGACGGUGUGUUUGGAGUAUUGCCAUUCCCAUCGCUGUUAGCUCUAGAGCACAUCCAGAGCAUACGUUUACAGAGGAAACUUGAU: 0.502

Further values, each from its own experiment
C[C@H](c1ccc(F)cc1)N(Cc1cccc(C(=O)O)c1)C(=O)c1cnc2ccccc2c1
remaining binding (SRPK1 (Homo sapiens, UniProt Q96SB4); cell-free assay, competition with immobilised ligand; 1 µM): 95%

COc1cc2ncnc(Nc3ccc(OCc4ccccc4)cc3)c2cc1OC
remaining activity (TNK2 (Homo sapiens, UniProt Q07912); enzyme activity, inhibitor; 0.5 µM; relative to: control): 53.1%

Repeated from above (block 1):
CCAAAC: 0.821
